Results of several laboratories.
A part holds a random share of what one study measured. Values joined by “and” are separate records of one study, mostly repeats; a detail may differ.
Chain of UniProt P0C1S8 (whole entry, looked up): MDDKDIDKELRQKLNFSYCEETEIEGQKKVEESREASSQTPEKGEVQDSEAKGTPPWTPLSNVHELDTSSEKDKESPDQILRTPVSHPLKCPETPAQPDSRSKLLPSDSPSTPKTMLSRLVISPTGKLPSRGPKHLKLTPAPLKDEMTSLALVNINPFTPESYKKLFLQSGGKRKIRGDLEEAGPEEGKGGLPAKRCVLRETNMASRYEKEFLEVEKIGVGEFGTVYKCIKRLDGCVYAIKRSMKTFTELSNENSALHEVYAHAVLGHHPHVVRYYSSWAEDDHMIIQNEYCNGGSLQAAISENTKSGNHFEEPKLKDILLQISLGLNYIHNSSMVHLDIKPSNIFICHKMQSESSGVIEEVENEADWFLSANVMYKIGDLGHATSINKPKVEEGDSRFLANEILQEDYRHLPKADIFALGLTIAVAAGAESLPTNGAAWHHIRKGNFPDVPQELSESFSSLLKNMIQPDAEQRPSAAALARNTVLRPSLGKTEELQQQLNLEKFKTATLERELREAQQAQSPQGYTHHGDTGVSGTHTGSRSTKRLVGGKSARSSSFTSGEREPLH
Chain of UniProt Q8TDX7 (whole entry, looked up): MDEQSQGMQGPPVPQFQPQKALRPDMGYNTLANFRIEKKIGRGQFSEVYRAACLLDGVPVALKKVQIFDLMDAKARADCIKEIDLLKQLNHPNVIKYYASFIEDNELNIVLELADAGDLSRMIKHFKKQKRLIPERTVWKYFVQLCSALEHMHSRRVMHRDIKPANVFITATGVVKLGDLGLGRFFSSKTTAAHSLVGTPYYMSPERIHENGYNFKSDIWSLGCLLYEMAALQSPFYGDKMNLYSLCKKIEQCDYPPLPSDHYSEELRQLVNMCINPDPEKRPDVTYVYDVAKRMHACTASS
Chain of UniProt Q16566 (whole entry, looked up): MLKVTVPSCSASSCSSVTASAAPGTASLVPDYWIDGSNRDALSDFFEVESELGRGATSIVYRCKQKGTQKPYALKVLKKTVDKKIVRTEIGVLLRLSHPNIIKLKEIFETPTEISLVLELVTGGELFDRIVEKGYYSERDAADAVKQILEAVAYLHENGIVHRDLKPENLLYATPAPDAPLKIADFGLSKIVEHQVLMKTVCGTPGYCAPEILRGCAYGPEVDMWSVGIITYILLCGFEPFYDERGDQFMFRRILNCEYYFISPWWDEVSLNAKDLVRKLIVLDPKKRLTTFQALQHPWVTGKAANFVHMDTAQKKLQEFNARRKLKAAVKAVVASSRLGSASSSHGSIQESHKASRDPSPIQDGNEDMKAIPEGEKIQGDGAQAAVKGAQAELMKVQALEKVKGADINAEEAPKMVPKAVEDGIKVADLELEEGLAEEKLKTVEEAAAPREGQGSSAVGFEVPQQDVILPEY
Chain of UniProt Q9Y5S2 (whole entry, looked up): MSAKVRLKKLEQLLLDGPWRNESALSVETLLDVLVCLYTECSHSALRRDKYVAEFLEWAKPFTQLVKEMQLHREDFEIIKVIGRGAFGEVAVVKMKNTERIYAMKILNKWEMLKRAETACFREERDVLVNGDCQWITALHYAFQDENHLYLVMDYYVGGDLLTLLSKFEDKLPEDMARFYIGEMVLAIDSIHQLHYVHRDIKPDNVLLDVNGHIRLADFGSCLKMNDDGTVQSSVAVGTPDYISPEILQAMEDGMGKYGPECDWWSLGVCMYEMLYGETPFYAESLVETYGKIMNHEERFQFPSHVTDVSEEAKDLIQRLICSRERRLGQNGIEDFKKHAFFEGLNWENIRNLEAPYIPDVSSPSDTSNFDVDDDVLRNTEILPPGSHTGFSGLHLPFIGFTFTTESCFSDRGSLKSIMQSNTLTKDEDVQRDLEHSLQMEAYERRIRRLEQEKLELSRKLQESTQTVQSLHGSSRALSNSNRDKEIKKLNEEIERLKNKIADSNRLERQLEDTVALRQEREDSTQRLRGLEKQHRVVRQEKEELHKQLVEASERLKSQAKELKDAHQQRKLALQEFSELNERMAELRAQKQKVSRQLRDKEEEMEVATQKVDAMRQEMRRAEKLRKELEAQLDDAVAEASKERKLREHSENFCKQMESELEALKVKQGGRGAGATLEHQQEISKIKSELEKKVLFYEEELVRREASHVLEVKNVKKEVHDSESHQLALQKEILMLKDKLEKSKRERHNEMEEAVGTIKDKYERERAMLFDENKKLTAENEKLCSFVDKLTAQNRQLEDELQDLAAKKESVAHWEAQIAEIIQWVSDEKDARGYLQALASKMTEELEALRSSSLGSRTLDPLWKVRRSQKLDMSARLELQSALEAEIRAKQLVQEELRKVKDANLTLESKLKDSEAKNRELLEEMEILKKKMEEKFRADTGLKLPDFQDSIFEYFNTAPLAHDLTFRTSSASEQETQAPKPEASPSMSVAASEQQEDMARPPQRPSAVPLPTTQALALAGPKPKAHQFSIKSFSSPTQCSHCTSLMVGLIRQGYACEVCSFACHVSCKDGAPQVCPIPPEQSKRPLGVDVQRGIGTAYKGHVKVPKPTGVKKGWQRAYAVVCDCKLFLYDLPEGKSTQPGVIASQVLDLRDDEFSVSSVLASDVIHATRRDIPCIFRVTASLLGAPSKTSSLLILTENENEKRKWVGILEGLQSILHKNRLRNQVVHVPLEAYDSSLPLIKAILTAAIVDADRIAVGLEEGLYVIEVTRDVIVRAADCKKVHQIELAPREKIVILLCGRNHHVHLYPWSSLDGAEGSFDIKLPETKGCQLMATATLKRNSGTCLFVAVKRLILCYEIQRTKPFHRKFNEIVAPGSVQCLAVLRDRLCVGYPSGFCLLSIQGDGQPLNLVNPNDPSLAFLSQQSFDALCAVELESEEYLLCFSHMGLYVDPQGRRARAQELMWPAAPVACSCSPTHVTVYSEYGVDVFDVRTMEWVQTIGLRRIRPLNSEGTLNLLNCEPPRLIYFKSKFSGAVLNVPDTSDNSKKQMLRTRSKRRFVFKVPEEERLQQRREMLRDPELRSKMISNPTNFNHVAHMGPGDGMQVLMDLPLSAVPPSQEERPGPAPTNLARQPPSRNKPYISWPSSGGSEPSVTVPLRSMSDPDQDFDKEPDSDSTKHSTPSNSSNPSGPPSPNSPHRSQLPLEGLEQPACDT
Chain of UniProt P32298 (whole entry, looked up): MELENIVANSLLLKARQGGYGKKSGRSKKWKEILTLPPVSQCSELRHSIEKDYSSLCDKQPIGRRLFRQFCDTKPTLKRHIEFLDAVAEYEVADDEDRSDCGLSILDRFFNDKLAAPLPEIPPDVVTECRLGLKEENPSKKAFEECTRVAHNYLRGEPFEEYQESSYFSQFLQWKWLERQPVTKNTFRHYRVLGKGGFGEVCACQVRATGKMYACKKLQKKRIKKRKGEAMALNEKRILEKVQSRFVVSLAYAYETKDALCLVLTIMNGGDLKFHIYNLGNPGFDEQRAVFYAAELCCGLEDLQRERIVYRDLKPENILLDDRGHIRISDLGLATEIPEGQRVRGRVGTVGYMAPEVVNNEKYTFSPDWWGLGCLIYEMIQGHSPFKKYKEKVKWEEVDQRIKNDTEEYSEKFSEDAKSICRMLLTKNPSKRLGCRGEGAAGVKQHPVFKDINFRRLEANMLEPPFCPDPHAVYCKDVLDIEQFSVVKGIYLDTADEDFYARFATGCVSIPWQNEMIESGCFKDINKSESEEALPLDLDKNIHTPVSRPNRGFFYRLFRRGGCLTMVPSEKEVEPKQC
Chain of UniProt Q15303 (whole entry, looked up): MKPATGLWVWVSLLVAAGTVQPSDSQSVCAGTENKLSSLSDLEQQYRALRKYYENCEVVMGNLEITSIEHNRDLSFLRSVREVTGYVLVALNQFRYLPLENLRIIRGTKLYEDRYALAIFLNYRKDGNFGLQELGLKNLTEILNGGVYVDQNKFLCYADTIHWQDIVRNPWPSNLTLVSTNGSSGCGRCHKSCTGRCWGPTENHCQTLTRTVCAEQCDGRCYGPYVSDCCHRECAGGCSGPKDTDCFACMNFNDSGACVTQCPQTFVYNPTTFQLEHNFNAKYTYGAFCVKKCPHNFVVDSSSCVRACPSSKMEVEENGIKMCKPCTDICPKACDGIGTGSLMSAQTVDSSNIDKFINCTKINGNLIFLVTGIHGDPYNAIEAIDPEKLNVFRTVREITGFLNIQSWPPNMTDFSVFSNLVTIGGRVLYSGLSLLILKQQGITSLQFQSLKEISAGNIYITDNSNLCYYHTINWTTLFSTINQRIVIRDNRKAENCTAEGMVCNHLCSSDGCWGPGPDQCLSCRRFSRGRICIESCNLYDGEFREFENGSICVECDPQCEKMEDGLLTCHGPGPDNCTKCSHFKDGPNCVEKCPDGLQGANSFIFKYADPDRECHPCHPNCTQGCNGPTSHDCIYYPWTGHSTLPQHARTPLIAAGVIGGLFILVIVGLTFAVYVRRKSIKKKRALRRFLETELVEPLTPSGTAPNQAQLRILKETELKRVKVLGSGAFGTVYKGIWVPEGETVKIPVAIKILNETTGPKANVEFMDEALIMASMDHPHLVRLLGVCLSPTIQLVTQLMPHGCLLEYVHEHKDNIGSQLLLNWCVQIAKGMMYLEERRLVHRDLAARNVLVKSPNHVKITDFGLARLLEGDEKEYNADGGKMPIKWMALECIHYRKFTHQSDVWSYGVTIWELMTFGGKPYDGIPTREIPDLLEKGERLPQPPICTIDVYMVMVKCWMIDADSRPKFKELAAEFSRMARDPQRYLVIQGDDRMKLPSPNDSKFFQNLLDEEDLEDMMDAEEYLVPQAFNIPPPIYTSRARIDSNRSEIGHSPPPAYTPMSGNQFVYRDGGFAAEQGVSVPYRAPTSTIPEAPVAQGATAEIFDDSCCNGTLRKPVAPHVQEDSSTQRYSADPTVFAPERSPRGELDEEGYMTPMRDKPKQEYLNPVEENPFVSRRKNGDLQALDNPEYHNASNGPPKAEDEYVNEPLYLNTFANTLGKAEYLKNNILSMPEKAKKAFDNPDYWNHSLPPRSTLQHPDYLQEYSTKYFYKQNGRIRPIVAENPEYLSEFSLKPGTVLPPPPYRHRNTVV

Study 1 — organism: Plasmodium berghei; mode: inhibitor; cell line: Huh-7; strain: GFP-expressing sporozoites, liver stage; concentration: 10 µM; time: 24 h; reference: untreated control
Structure (SMILES)	infection rate
CC(=O)OCC(=O)[C@H]1CC[C@H]2[C@@H]3CCC4=CC(=O)CC[C@]4(C)[C@H]3CC[C@]12C	75.5%
CCCCCCCCCCCCCCCC[N+](C)(C)C	15.8%
O=C(O)Cc1ccccc1Nc1c(Cl)cccc1Cl	109%
COCC1=C(C(=O)OC(C)OC(=O)OC(C)C)N2C(=O)[C@@H](NC(=O)/C(=N\OC)c3csc(N)n3)[C@H]2SC1 (some centres unmarked)	95.7%

Study 2 — method: competition with immobilised ligand; concentration: 1 µM
Compound: O=S(=O)(NC1CCC(c2cc(F)ccc2F)(S(=O)(=O)c2ccc(Cl)cc2)CC1)C(F)(F)F (centres unmarked)
target	test	remaining binding [%]
NEK6 (Homo sapiens, UniProt Q9HC98)	cell-free assay	100
CDK14 (Homo sapiens, UniProt O94921)	cell-free assay	100
ERBB4 (Homo sapiens, UniProt Q15303)	cell-free assay	94
STK32A (Homo sapiens, UniProt Q8WU08)	cell-free assay	97
NEK7 (Homo sapiens, UniProt Q8TDX7)	cell-free assay	100
EPHA1 (Homo sapiens, UniProt P21709)	cell-free assay	100
DSTYK (Homo sapiens, UniProt Q6XUX3)	cell-free assay	100
Tyrosine-protein kinase ABL1, phosphorylated (ABL1, Homo sapiens, UniProt P00519, Y253F)	cell-free assay	100
Tyrosine-protein kinase ABL1, phosphorylated (ABL1, Homo sapiens, UniProt P00519)	cell-free assay	87
WEE2 (Homo sapiens, UniProt P0C1S8)	cell-free assay	100
Macrophage colony-stimulating factor 1 receptor, autoinhibited (CSF1R, Homo sapiens, UniProt P07333)	cell-free assay	100
CDK11A (Homo sapiens, UniProt Q9UQ88)	binding	96
EIF2AK2 (Homo sapiens, UniProt P19525)	cell-free assay	87
STK39 (Homo sapiens, UniProt Q9UEW8)	cell-free assay	100

Study 3 — Structure (SMILES): CC(C)n1cnc2c(Nc3cccc(Cl)c3)nc(NCCO)nc21; observed: enzyme activity; mode: inhibitor; concentration: 0.5 µM; reference: control
target	remaining activity [%]
CAMK4 (Homo sapiens, UniProt Q16566)	101
CLK4 (Homo sapiens, UniProt Q9HAZ1)	36.1
PLK3 (Homo sapiens, UniProt Q9H4B4)	48.5
MINK1 (Homo sapiens, UniProt Q8N4C8)	86.3
MARK2 (Homo sapiens, UniProt Q7KZI7)	98.7
PAK3 (Homo sapiens, UniProt O75914)	96.7
PNCK (Homo sapiens, UniProt Q6P2M8)	100
GRK4 (Homo sapiens, UniProt P32298)	93.5
CDC42BPB (Homo sapiens, UniProt Q9Y5S2)	109
NEK3 (Homo sapiens, UniProt P51956)	92.6
ROCK1 (Homo sapiens, UniProt Q13464)	101
Cyclin-dependent kinase 9, with cyclin K (CDK9, Homo sapiens, UniProt P50750)	86.9
MAPK14 (Homo sapiens, UniProt Q16539)	90.7

Single results of other studies
Structure (SMILES)	test	system	conditions	scale	measurement	result
CC(=O)N[C@@H](Cc1c[nH]c2ccccc12)C(=O)N[C@@H](CCC(=O)C=[N+]=[N-])C(=O)OC(C)C	UPLC-MS/MS	EL4 tumor, C57BL/6 CES1-/- mice, tumor	subcutaneous, 0.3 mg/kg DON equivalent daily, 5 days	higher = more metabolite	pyridoxamine phosphate level	487000 a.u. and 968000 a.u. and 880000 a.u. and 592000 a.u. and 1.16e+06 a.u. and 835000 a.u.

Repeated from above (study 2):
target	test	remaining binding [%]
WEE2 (Homo sapiens, UniProt P0C1S8)	cell-free assay	100
Macrophage colony-stimulating factor 1 receptor, autoinhibited (CSF1R, Homo sapiens, UniProt P07333)	cell-free assay	100
